Assay results of several laboratories.
Protocols differ between the studies behind these lines. ± gives the spread as reported.
CHRM1: Muscarinic acetylcholine receptor M1 (CHRM1, Homo sapiens, UniProt P11229)
Chain of UniProt P11229 (whole entry, looked up): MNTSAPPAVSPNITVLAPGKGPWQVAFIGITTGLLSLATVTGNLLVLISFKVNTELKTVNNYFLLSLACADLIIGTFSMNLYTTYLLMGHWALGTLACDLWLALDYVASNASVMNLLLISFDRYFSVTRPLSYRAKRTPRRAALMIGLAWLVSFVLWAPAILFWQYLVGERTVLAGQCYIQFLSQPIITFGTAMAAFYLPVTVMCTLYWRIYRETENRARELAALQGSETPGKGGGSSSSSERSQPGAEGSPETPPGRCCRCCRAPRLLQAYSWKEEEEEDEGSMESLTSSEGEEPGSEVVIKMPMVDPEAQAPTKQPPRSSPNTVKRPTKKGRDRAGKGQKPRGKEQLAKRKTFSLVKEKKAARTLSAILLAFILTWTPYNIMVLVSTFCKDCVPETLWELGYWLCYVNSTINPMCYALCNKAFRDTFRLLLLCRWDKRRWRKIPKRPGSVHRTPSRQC
B1: α-TTP F165A; sequence looked up; chain MAEARSQPSAGPQLNALPDHSPLLQPGLAALRRRAREAGVPLAPLPLTDSFLLRFLRARDFDLDLAWRLLKNYYKWRAECPEISADLHPRSIIGLLKAGYHGVLRSRDPTGSKVLIYRIAHWDPKVFTAYDVFRVSLITSELIVQEVETQRNGIKAIFDLEGWQASHAFQITPSVAKKIAAVLTDSFPLKVRGIHLINEPVIFHAVFSMIKPFLTEKIKERIHMHGNNYKQSLLQHFPDILPLEYGGEEFSMEDICQEWTNFIMKSEDYLSSISESIQ
Chain of UniProt Q9H4A6 (whole entry, looked up): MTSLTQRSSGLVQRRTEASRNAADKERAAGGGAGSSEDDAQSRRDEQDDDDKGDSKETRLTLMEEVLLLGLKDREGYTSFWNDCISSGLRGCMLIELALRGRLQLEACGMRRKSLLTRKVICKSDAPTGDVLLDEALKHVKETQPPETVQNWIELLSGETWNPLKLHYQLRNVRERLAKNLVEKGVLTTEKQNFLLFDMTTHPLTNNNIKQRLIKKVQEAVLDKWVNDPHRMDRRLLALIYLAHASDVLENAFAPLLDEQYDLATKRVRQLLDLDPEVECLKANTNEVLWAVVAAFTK
Chain of UniProt P61823 (whole entry, unmodified, looked up): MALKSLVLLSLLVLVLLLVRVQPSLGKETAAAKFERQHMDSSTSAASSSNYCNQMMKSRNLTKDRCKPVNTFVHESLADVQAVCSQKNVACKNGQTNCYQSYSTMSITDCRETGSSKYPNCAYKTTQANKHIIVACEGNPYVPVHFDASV
Chain of UniProt P00520 (whole entry, looked up): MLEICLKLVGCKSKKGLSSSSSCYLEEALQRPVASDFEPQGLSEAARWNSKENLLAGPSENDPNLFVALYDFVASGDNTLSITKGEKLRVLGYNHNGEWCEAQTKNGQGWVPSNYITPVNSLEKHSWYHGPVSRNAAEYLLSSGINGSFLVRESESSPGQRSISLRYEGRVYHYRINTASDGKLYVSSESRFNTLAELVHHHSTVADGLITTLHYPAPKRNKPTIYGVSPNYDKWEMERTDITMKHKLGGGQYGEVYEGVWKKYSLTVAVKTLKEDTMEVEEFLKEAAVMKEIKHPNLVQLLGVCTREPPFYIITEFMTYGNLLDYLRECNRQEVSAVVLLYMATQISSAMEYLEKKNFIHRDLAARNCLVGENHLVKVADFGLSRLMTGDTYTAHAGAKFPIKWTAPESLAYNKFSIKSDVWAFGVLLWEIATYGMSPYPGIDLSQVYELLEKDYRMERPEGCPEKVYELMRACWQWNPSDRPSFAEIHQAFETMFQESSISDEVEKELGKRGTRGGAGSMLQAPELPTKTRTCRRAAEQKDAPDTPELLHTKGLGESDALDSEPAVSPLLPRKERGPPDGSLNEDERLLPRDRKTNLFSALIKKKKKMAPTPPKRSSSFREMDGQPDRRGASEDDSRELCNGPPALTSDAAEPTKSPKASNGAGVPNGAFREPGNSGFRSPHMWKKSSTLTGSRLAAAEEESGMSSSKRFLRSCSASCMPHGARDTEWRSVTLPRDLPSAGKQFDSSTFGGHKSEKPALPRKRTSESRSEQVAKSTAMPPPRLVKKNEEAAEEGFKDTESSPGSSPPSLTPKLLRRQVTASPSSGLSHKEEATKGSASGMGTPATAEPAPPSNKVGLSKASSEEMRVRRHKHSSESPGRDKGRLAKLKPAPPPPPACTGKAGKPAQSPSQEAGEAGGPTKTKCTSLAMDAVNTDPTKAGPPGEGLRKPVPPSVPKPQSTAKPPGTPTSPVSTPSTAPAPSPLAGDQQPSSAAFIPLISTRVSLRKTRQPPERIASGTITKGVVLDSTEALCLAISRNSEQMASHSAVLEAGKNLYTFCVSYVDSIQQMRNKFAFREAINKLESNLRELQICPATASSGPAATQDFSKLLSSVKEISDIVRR
Chain of UniProt Q58293 (whole entry, looked up): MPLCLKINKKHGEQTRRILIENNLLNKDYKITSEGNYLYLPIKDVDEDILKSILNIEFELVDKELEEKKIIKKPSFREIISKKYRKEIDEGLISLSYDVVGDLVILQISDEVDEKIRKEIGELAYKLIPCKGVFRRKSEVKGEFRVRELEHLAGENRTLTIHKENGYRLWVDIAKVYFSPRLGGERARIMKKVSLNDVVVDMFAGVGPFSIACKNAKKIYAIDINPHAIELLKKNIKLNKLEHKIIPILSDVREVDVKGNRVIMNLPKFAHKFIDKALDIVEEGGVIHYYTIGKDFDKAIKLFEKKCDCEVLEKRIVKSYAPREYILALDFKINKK
Chain of UniProt P11509 (whole entry, looked up): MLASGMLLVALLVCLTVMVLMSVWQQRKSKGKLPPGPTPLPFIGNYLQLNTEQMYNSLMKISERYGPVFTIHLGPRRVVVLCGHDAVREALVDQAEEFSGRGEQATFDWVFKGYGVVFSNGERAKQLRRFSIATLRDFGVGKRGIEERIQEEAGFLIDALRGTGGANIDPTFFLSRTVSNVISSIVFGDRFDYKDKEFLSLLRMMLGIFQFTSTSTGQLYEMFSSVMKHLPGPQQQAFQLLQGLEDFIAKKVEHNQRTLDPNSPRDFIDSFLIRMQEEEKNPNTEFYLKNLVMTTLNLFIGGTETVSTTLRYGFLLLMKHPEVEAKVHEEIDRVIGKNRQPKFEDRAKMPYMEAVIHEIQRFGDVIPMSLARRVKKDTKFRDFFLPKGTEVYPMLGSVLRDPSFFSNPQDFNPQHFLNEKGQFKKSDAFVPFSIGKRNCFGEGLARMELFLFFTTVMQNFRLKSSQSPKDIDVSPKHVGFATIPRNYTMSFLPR

`B1 (α-TTP F165A)` has a Kd of 0.052 µM (alpha-tocopherol transfer protein variants; binding, fluorescence titration; added: NBD-Toc).
For `CC(=O)N[C@H]1[C@H](O[C@H]2[C@@H](O)[C@@H](CO)O[C@H](O[C@@H]3[C@H](O)[C@@H](O)[C@H](O[C@H]4[C@H](O)[C@@H](O)[C@H](O)O[C@@H]4CO)O[C@@H]3CO)[C@@H]2O)O[C@H](CO)[C@H](O)[C@@H]1O[C@@H]1O[C@H](CO)[C@H](O)[C@H](O)[C@H]1O[C@@H]1O[C@@H](C)[C@@H](O)[C@@H](O)[C@@H]1O`, the Kd was 17 µM (RNASE1 (Bos taurus, UniProt P61823, A45C); binding; pH 5).
`C[C@]12C=CC(=O)C=C1CC[C@@H]1[C@@H]2[C@@H](O)C[C@@]2(C)[C@H]1CC[C@]2(O)C(=O)CO` has a Kd of 0.026 ± 0.003 µM (mouse anti-cortisol Fab 17; native MS titration; 200 mM ammonium acetate; 1.5% DMSO, 0.5% methanol, added: Fab 100 nM).
The Kd of `CCCCCCCCCCCCCCCC(=O)OC[C@H](COP(=O)(O)O[C@H]1[C@H](O)[C@@H](OP(=O)(O)O)[C@H](O)[C@@H](O)[C@H]1O)OC(=O)CCCCCCCCCCCCCCC` is reported as roughly 25 µM (Golgi phosphoprotein 3 (GOLPH3, Homo sapiens, UniProt Q9H4A6); surface plasmon resonance; DOPC vesicles 3 mol% lipid; pH 7.5, 25 °C).
`C#Cc1ccc2ccccc2c1` gave a Kd of 1 µM (Cytochrome P450 2A6 (CYP2A6, Homo sapiens, UniProt P11509); binding, absorbance; pH 7.4).
Under “change in baseline activity”, `CC(C)n1cc(-c2ccc(COc3ccccc3-c3cc(=O)n(C4CCCCC4O)cn3)cc2)cn1` (stereo not shown) is recorded as 34.5 ± 2.2 (CHRM1; allosteric agonist, IP1 accumulation; CHO-M1 cells; 1 µM, unit not given; relative to: maximum ACh response).
The Kd of `CO[C@H]1C[C@H](C)Cc2cc(O)cc(c2)NC(=O)/C(C)=C/CC[C@H](OC)[C@@H](OC(N)=O)/C(C)=C/[C@H](C)[C@H]1O` is reported as 0.036 µM (HSP90AA1 (Homo sapiens, UniProt P07900); binding, competitive binding).
`O=Cc1ccccc1B(O)O` has a Kd of 4.6 µM (cysteine; thiazolidine formation, NMR competition).
The Kd of `CCCC(=O)OCC(COP(=O)(O)OC1C(O)C(O)C(OP(=O)(O)O)C(O)C1O)OC(=O)CCC` (stereo not shown) is reported as 700 ± 230 µM (Tyrosine-protein kinase ABL1, SH2 domain (Abl1, Mus musculus, UniProt P00520); HSQC NMR titration; SH2 domain, no KCl).
`CCN(CC)C(=O)c1ccc(COc2ccccc2-c2cc(=O)n(C3CCCCC3O)cn2)cc1` (stereo not shown): “ΔpEC50 of ACh” 0.74 ± 0.13 log units (CHRM1; positive allosteric modulator, IP1 accumulation; CHO-M1 cells; 10 µM, 60 min, 37 °C, added: ACh; relative to: ACh alone, higher = stronger potentiation).
`O=C(NN=Cc1ccc(C[n+]2ccccc2)cc1)c1ccc2ccc3ccc(C(=O)NN=Cc4ccc(C[n+]5ccccc5)cc4)nc3c2n1` has a Kd of greater than 10 µM (G-quadruplex DNA 22CTA (human); binding, fluorimetric titration; 100 mM KCl buffer; pH 7.2, added: 5'-Cy5-labelled G4 2 nM).
`O=C1OC2(c3cc(I)c(O)c(I)c3Oc3c2cc(I)c(O)c3I)c2c(Cl)c(Cl)c(Cl)c(Cl)c21` has a Kd of 76 µM (L-threonine aldolase (Thermotoga maritima, UniProt Q9X266); fluorescence anisotropy; single binding event).
For `Nc1ncnc2c1ncn2[C@@H]1O[C@H](CSCC[C@H](N)C(=O)O)[C@@H](O)[C@H]1O`, the Kd was 0.02 ± 0.005 µM (tRNA (guanine(37)-N(1))-methyltransferase Trm5b (trm5b, Methanocaldococcus jannaschii, UniProt Q58293); methyl transfer burst amplitude, inhibitor, rapid quench; pH 8.0, 55 °C, added: tRNA(Cys), 25 µM AdoMet).

For quick reference, copied from above:
`B1 (α-TTP F165A)` has a Kd of 0.052 µM (alpha-tocopherol transfer protein variants; binding, fluorescence titration; added: NBD-Toc).
For `CC(=O)N[C@H]1[C@H](O[C@H]2[C@@H](O)[C@@H](CO)O[C@H](O[C@@H]3[C@H](O)[C@@H](O)[C@H](O[C@H]4[C@H](O)[C@@H](O)[C@H](O)O[C@@H]4CO)O[C@@H]3CO)[C@@H]2O)O[C@H](CO)[C@H](O)[C@@H]1O[C@@H]1O[C@H](CO)[C@H](O)[C@H](O)[C@H]1O[C@@H]1O[C@@H](C)[C@@H](O)[C@@H](O)[C@@H]1O`, the Kd was 17 µM (RNASE1 (Bos taurus, UniProt P61823, A45C); binding; pH 5).
